Measurements collected from several papers.
Lines come from different studies, so protocols differ. ± gives the spread as reported.

Structure (SMILES) | target or system | test | test system | conditions | scale | endpoint | result
O=C(N/N=C/c1ccc(C[n+]2ccccc2)cc1)c1ccc2ccc(C(=O)N/N=C/c3ccc(C[n+]4ccccc4)cc3)nc2n1 | MYC parallel G4 DNA | FRET melting | – | 1 µM, DNA 0.2 µM, with: duplex DNA competitor 10 µM | – | ΔTm | 6.6 ± 0.2 °C
CNS(=O)(=O)Nc1nccc(Cc2c(C)c3ccc(Oc4ncccc4F)cc3oc2=O)c1F | Hep3B | cell viability | – | 7 days | – | IC50 | 0.108 µM
O=C(N/N=C/c1cc[n+](CC2CC2)c2ccccc12)C(=O)N/N=C/c1cc[n+](CC2CC2)c2ccccc12 | MYC parallel G4 DNA | FRET melting | – | 1 µM, DNA 0.2 µM, with: duplex DNA competitor 10 µM | – | ΔTm | 2.7 ± 0.6 °C
C=CC(=O)N1[C@@H](c2ccc3c(c2)OCO3)c2[nH]c3ccccc3c2C[C@H]1C(=O)N1CCN(C)CC1 | human cyclin E1 wild type-3xFLAG:CDK2 | co-IP with TMT proteomics, refers to: PCBP1 | – | concentration not given, Q15365 | reference: wild type DMSO | relative co-enrichment | 96%
C[n+]1ccc(/C=N/NC(=O)N/N=C/c2cc[n+](C)c3ccccc23)c2ccccc21 | MYC parallel G4 DNA | FRET melting | – | 1 µM, DNA 0.2 µM, with: duplex DNA competitor 10 µM | – | ΔTm | 3.7 ± 0.2 °C
CN1CCCNC(=O)c2cccc(c2)C(=O)NCCCN(C)CCCNc2cccc3c2C(=O)c2cccc(c2C3=O)NCCC1 | SAS | RNA-Seq, refers to: WDR77 mRNA | – | 1 µM, 6 h | reference: untreated cells | log2 fold change | -0.575
COC1CN([C@H]2CC[C@H]([C@@]3(C)Oc4c(Cl)cc(C(=O)NCc5c(SC)cc(C)[nH]c5=O)c(C)c4O3)CC2)C1 | – | RNA-seq, refers to: CREB3L3 mouse homolog | mouse, HT-1376 xenograft, whole blood | dose not given | reference: vehicle | log2 fold change | 1.37
Cc1ncsc1-c1ccc(C(C)NC(=O)C2CC(O)CN2C(=O)C(NC(=O)CCCCCCCCCCN2CCCC(Nc3ncc(Cl)c(Nc4ccccc4S(=O)(=O)C(C)C)n3)C2)C(C)(C)C)cc1 (stereo not shown) | 22Rv1 | RNA-seq, refers to: ZNF490 mRNA | – | concentration not given | reference: DMSO | log2 fold change | -1.71
C=CC(=O)Nc1cccc(Cn2ncc3cnc(Nc4cnn(CCOC)c4)nc32)c1 | TNIK human | binding, KINOMEscan | – | 100 nM | lower = stronger binding | percent of control | 100%
CCCC(=O)N1CCN(c2ccc(NC(=O)c3ccc([N+](=O)[O-])o3)cc2Cl)CC1 | Mus musculus | gene silencing, high-content imaging | LDR reporter GFP cells | 30 h, retest run 1 | – | Emax | 18%
O=C(N/N=C/c1ccc2c(ccc[n+]2Cc2ccccc2)c1)c1ccc2ccc3ccc(C(=O)N/N=C/c4ccc5c(ccc[n+]5Cc5ccccc5)c4)nc3c2n1 | hp2 hairpin duplex DNA | FRET melting | – | 1 µM | – | ΔTm | 1.9 ± 1.5 °C
Nc1ncc(-c2cc(-c3cnn(CC(F)(F)F)c3)ncc2F)nc1C(=O)NC1CNCC(F)C1 (stereo not shown) | MUSK | KINOMEscan | – | 1 µM | reference: DMSO control | remaining binding | 56%
CCc1nnc(NC(=O)c2cccc(C(=O)Nc3nnc(CC)s3)n2)s1 | Mus musculus | gene silencing, high-content imaging | LDR reporter GFP cells | retest, mean of two runs | – | EC50 | 20 µM

A few entries again:
Structure (SMILES) | target or system | test | test system | conditions | scale | endpoint | result
C[n+]1ccc(/C=N/NC(=O)N/N=C/c2cc[n+](C)c3ccccc23)c2ccccc21 | MYC parallel G4 DNA | FRET melting | – | 1 µM, DNA 0.2 µM, with: duplex DNA competitor 10 µM | – | ΔTm | 3.7 ± 0.2 °C
